Measurements from different studies.
Each numbered part is a random draw from the data of one study; scales do not carry over between parts.
Sequence of UniProt Q13043 (whole entry, looked up): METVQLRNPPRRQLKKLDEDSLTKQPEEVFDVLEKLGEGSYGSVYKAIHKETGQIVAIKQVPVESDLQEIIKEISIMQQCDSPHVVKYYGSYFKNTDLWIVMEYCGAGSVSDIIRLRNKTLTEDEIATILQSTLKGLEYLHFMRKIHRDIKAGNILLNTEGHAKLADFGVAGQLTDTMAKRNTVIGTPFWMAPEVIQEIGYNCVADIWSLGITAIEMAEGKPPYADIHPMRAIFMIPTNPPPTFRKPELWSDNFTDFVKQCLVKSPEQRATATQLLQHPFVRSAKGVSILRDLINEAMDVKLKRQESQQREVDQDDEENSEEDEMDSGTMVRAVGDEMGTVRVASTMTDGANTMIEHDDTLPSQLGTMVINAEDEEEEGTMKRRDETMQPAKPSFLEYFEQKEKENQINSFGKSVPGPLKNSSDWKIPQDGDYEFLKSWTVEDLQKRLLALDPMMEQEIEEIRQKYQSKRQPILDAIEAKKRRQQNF
Sequence of UniProt P35462 (whole entry, looked up): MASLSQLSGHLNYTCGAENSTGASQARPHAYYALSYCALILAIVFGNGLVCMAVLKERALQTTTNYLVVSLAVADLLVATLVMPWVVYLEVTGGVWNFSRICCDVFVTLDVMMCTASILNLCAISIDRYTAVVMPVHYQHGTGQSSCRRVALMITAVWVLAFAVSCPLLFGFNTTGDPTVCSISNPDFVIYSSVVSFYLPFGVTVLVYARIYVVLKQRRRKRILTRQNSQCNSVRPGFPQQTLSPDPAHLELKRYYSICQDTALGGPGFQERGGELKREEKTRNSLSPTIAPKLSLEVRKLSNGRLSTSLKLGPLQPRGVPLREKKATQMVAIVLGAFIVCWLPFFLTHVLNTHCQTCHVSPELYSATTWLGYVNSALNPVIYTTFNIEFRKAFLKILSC
Sequence of UniProt Q9UQM7 (whole entry, looked up): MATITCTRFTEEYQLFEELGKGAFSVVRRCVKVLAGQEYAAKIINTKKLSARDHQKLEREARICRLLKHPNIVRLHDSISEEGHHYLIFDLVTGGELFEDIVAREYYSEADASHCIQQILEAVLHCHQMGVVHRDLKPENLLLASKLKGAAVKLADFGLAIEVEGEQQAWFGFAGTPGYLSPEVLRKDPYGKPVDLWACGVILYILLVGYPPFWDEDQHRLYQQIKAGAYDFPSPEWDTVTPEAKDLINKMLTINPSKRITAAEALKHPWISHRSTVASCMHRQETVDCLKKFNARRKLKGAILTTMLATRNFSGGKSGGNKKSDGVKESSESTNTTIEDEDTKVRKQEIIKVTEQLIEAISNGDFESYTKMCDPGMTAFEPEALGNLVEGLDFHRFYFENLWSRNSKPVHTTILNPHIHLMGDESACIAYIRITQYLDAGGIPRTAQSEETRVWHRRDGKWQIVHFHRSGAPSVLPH
Sequence of UniProt P16234 (whole entry, looked up): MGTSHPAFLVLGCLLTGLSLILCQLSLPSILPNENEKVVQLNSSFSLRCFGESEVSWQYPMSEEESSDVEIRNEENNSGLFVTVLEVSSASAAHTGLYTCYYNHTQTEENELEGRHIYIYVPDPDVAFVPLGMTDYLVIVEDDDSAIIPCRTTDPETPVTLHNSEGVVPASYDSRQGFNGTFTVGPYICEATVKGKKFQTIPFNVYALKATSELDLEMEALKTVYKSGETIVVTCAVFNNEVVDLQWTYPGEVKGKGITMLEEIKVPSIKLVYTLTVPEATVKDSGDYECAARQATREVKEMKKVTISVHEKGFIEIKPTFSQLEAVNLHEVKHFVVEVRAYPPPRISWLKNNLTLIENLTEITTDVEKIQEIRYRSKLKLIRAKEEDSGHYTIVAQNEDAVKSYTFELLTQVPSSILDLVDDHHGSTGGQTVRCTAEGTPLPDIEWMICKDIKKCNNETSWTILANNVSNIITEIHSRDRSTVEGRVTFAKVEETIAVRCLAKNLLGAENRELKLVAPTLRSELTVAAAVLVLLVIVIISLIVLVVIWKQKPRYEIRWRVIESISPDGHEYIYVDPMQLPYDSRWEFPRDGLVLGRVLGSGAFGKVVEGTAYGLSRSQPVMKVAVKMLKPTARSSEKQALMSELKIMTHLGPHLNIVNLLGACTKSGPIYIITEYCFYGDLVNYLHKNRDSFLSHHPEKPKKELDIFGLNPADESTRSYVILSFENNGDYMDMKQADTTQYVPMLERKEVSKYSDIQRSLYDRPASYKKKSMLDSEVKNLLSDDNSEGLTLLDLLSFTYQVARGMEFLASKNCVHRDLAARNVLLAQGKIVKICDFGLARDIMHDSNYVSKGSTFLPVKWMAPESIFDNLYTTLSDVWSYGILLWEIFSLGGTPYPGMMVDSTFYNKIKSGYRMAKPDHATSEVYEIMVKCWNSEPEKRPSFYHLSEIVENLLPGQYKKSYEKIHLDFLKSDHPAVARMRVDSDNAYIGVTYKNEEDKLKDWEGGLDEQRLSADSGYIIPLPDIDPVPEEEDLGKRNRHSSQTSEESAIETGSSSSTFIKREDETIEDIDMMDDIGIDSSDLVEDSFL
Sequence of UniProt Q13188 (whole entry, looked up): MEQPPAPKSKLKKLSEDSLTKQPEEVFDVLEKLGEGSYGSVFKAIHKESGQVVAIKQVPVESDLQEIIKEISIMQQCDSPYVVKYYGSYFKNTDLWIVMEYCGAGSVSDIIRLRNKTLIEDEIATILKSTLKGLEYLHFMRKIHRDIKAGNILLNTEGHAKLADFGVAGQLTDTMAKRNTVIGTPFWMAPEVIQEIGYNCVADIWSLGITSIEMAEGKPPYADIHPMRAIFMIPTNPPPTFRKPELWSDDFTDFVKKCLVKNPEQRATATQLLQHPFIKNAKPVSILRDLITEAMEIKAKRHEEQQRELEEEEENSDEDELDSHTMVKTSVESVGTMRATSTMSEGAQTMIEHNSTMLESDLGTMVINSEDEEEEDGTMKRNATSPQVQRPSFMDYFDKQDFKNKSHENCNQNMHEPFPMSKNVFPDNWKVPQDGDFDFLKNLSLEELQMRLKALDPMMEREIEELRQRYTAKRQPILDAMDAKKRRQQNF
Sequence of UniProt Q01959 (whole entry, looked up): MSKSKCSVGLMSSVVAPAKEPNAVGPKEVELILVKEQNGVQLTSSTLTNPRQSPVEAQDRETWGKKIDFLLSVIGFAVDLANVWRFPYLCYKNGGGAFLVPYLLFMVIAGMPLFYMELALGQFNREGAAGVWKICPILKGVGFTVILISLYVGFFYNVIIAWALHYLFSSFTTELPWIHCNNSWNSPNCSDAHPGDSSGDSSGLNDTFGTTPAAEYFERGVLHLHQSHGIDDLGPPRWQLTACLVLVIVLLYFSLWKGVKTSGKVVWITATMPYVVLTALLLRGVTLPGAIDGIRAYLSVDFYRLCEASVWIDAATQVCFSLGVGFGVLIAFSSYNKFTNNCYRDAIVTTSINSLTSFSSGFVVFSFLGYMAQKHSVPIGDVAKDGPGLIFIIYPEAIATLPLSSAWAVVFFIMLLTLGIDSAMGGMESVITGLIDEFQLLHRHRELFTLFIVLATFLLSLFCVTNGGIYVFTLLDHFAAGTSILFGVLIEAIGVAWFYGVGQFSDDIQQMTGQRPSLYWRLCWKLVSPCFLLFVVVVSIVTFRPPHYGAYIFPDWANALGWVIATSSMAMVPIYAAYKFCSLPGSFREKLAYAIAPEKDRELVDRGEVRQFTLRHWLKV
Sequence of UniProt P78362 (whole entry, looked up): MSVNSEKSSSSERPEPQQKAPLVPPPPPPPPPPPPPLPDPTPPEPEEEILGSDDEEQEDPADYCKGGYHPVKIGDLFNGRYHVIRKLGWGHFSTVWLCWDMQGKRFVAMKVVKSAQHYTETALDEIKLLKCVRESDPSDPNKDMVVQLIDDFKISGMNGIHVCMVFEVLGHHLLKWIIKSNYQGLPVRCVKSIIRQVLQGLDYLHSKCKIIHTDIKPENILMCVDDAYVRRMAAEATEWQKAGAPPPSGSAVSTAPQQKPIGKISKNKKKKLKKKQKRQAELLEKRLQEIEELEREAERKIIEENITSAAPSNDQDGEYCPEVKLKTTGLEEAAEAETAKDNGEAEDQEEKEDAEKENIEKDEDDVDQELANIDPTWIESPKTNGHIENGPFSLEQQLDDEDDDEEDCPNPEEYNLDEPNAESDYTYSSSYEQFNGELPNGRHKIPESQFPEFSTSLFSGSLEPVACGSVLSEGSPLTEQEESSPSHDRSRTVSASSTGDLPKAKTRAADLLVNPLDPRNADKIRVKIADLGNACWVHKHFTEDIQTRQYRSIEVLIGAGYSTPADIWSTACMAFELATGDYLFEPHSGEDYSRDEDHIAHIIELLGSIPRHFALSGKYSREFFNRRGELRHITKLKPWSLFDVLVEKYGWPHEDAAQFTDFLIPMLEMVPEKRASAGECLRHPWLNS
Sequence of UniProt Q6P2M8 (whole entry, looked up): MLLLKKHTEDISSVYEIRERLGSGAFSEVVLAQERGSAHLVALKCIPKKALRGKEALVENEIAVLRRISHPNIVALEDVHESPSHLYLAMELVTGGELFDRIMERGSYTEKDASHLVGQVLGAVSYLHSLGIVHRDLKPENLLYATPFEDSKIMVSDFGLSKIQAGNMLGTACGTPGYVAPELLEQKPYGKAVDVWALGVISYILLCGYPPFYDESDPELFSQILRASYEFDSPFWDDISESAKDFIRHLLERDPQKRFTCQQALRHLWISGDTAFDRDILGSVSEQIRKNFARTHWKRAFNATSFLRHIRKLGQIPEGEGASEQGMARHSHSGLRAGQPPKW
Sequence of UniProt Q96GD4 (whole entry, looked up): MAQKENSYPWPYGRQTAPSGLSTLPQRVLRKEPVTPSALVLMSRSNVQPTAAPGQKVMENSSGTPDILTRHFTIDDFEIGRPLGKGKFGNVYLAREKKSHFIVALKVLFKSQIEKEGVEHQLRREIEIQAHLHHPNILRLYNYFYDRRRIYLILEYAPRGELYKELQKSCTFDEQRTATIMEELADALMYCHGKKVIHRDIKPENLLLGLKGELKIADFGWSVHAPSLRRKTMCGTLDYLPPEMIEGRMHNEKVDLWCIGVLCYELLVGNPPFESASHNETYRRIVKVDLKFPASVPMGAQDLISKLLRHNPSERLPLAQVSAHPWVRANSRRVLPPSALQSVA

Sample 1
Compound: N/C(=N\[N+](=O)[O-])N/N=C\c1ccc(-c2cccc([N+](=O)[O-])c2)o1
Effect on: enzyme activity
Action: inhibitor
Concentration: 0.5 µM
Reference: control
target	remaining activity
Testis-specific serine/threonine-protein kinase 1 (TSSK1B, Homo sapiens, UniProt Q9BXA7)	96.7%
Serine/threonine-protein kinase 3 (STK3, Homo sapiens, UniProt Q13188)	100%
SRSF protein kinase 2 (SRPK2, Homo sapiens, UniProt P78362)	101%
Calcium/calmodulin-dependent protein kinase type II subunit alpha (CAMK2A, Homo sapiens, UniProt Q9UQM7)	100%
Inhibitor of nuclear factor kappa-B kinase subunit alpha (CHUK, Homo sapiens, UniProt O15111)	88.1%
Serine/threonine-protein kinase 4 (STK4, Homo sapiens, UniProt Q13043)	96.5%
Platelet-derived growth factor receptor alpha (PDGFRA, Homo sapiens, UniProt P16234)	93.2%
Aurora kinase B (AURKB, Homo sapiens, UniProt Q96GD4)	99.1%

Sample 2
Cell line: A-375
Concentration: 100 µM
Time: 36 h
SMILES	viability [%]
C[C@]12CCC(=O)C=C1CC[C@@H]1[C@@H]2CC[C@@]2(C)[C@H]1CC[C@]2(C)O	91.8
COc1ccc(CN2CCNCC2)c(OC)c1OC	113
COc1ccc(C(CN(C)C)C2(O)CCCCC2)cc1 (stereo not shown)	114
C[C@]12CC[C@H]3[C@@H](CC[C@@]45O[C@@H]4C(O)=C(C#N)C[C@]35C)[C@@H]1CC[C@@H]2O	44.3

Sample 3
Organism: Plasmodium berghei
Action: inhibitor
Cell line: Huh-7
Strain: GFP-expressing, liver stage
Concentration: 10 µM
Time: 24 h
Reference: untreated control
SMILES	infection rate [%]
NCCc1cc(O)c(O)cc1O	41.7
CC(C)c1cccc(C(C)C)c1O	93.5
C[C@@H]1[C@H](O)[C@@H](C)/C=C/C=C/CC/C=C/C=C/C=C/C=C/[C@H](O[C@@H]2O[C@H](C)[C@@H](O)[C@H](N)[C@@H]2O)C[C@@H]2O[C@](O)(C[C@@H](O)[C@H](O)CC[C@@H](O)C[C@@H](O)C[C@@H](O)CC(=O)O[C@H]1C)C[C@H](O)[C@H]2C(=O)O	105

Single results of other studies
SMILES	target	test	conditions	quantity	result
CNC(=O)c1cc(C(=O)NC2CC2)cn(Cc2ccccc2)c1=O	D(3) dopamine receptor (DRD3, Homo sapiens, UniProt P35462)	binding, radioligand binding	10 µM	inhibition	1.54%
CN([C@@H]1CCc2c(CC(=O)O)c3cc(S(C)(=O)=O)ccc3n2C1)S(=O)(=O)c1ccc(F)cc1	Cyclin-dependent kinase 2 homolog (CRK2, Plasmodium falciparum, UniProt P61075)	cell-free assay, competition with immobilised ligand	1 µM	remaining binding	100%
O=C(NCc1ncc(C(F)(F)F)cc1Cl)c1ccc2c(c1)C1(CCS(=O)(=O)CC1)[C@@H](C1CC1)N2S(=O)(=O)c1ccc(F)cc1	Calcium/calmodulin-dependent protein kinase type 1B (PNCK, Homo sapiens, UniProt Q6P2M8)	cell-free assay, competition with immobilised ligand	1 µM	remaining binding	96%
CNC(=O)Nc1ccc2c(c1)CC[C@]21OC(=O)N(CC(=O)N(Cc2ccc(F)cc2)[C@@H](C)C(F)(F)F)C1=O	Sodium-dependent dopamine transporter (SLC6A3, Homo sapiens, UniProt Q01959)	ligand displacement	10 µM	inhibition	63.9%

For quick reference, copied from above (sample 3):
SMILES	infection rate [%]
NCCc1cc(O)c(O)cc1O	41.7
CC(C)c1cccc(C(C)C)c1O	93.5
